Measurements pooled from the literature.
A part holds a random share of what one study measured.

Set 1
Target: Histone acetyltransferase KAT6A, both winged helices, GST fusion (KAT6A, Homo sapiens, UniProt Q92794, residues 1-181)
Method: protein binding microarray
Form: double-stranded DNA, one strand shown
Matrix: in vitro
Concentration: not given
Setting: 8-mer, flanks averaged, mean of 2 arrays, mostly near background
Relative to: not given
Direction: higher = stronger binding
Quantity: E-score
Construct (chain): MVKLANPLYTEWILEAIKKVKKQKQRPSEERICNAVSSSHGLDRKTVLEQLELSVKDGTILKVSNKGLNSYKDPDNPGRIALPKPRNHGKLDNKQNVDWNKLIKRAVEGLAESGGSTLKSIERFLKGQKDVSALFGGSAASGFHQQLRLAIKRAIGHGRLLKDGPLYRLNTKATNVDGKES
AGCAGGAA: -0.142
GAGCGGAA: 0.217
AAGCGCCA: 0.105
CCTGGCAA: -0.172
AGTAATGG: -0.164
ACAGCGAA: -0.0502
CGTAGCCC: 0.0629
CTTGTTCA: -0.027

Set 2
Target: Interferon regulatory factor 5, full length, phosphomimetic (IRF5, Homo sapiens, UniProt Q13568-2, residues 1-514, S451D/S453D/S456D/S462D)
Method: protein-binding microarray
Form: double-stranded DNA, one strand shown
Matrix: in vitro
Concentration: 940 nM top
Setting: 60-bp whole probe
With: salmon DNA 0.4 mg/ml
Relative to: random background probes
Direction: higher = stronger binding
Quantity: fitted relative affinity
Shared flanks, not repeated: GCCTAGCAC … GTCTTGATTCGCTTGACGCTGCTG
GACGAACTGAGACTGGCGACGTGCTAG: -0.501 z-score
TGTGTTTTAAATAGGGCAAAGTGCTAG: -0.183 z-score
GACGGTTTCCTTCTCCGGACGTGCTAG: 2.61 z-score
TGTTTTTTGGTTTCTGGTTTGTGCTAG: 4.68 z-score
ATGAGTCTCAATATTAGAGTGTGCTAG: 2.02 z-score
GACGGTTTCCTTATCCAGACGTGCTAG: 1.71 z-score
GCGCTTCTCGAGTGCCGGCTGGTGCTA: -0.124 z-score
GACGATTTCACTTCCGAGACGTGCTAG: 1.32 z-score
TTAGCTTTCGGTATCGGTTAGTGCTAG: 9.13 z-score
AAGCTTCTTTTTTATTCTAAAGTGCTA: 1.21 z-score
GCCGGTATCGACTATCGGGACGTGCTA: 5.74 z-score
AAGTTTTTCATTTTTTTTCAGTGCTAG: 1.54 z-score
TTAAATTCCAGTTTCGATTAGTGCTAG: 9.62 z-score
TTAGGACTGGGGTATCGGGTAGTGCTA: 0.993 z-score
TTAGAACTGAGTTTAGATTAGTGCTAG: -0.333 z-score
TTAGATTTCGGTATCGATTAGTGCTAG: 7.02 z-score
TTAGAAGTGAGTATCGATTAGTGCTAG: 4.31 z-score
TCATTTTTTTACTTCGGACTGTGCTAG: 1.07 z-score
GACGATTACGGGTTTCGAGACGTGCTA: 1.44 z-score
GAGGGTTTCGGTTTCGGGACGTGCTAG: 12.2 z-score
GACGGTATCCTATTCCTGACGTGCTAG: 0.371 z-score
GACGGTTCCCATTTCCTGACGTGCTAG: 0.755 z-score
TTAGGACTGGTACTGGGTTAGTGCTAG: -0.644 z-score
TTTTTTTTTTTTTTTTTTACGTGCTAG: 1.54 z-score
TCACTTTTCTTTTCTTTACTGTGCTAG: 2.34 z-score

Set 3
Target: Sal-like protein 4, full length isoform A (SALL4, Homo sapiens, UniProt Q9UJQ4, residues 1-1053)
Sequence of UniProt Q9UJQ4 (whole entry, looked up): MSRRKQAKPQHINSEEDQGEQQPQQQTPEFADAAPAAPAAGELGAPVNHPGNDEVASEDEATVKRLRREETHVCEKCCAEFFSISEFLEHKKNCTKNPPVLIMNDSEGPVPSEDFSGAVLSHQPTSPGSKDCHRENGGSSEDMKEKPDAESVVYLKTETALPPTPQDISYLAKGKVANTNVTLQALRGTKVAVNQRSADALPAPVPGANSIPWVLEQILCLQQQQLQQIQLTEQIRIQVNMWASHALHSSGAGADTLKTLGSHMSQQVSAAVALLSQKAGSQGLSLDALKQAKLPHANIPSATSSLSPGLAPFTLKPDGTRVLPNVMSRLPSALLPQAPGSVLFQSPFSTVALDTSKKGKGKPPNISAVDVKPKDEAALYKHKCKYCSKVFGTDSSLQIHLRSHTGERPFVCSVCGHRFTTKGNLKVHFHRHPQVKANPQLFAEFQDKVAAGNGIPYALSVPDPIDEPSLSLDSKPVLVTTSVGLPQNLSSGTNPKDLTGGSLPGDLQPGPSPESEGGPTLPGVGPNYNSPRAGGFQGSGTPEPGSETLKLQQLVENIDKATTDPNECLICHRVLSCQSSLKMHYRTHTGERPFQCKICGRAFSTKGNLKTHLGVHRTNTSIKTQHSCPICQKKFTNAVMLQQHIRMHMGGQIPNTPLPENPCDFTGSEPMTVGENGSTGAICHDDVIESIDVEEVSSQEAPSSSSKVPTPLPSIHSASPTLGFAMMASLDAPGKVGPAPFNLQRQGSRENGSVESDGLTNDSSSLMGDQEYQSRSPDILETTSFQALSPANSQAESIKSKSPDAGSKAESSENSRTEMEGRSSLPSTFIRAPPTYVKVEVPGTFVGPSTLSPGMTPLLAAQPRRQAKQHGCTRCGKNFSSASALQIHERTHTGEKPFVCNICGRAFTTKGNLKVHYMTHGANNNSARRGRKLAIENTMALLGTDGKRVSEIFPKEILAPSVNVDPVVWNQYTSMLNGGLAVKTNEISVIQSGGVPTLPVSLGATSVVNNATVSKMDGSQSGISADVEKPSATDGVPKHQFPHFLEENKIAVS
Method: universal PBM
Form: double-stranded DNA, one strand shown
Matrix: in vitro
Concentration: 600 nM
Setting: 8-mer, flanks averaged, mean of replicates
Direction: higher = stronger binding
Quantity: E-score
AATCTTAT: 0.28
AACTAAAA: 0.226
AATTACAC: 0.188
CCCGCGCC: -0.364
AATTGGAT: 0.228

Set 4
Target: Prothrombin, mature alpha-thrombin (F2, Homo sapiens, UniProt P00734)
Method: aptamer microarray, sandwich
Form: DNA with 2'F-ANA
Matrix: in vitro
Concentration: 200 nM
Setting: whole 15-mer aptamer, many near background
With: Cy3 exosite-II aptamer, 400 nM
Direction: higher = stronger binding
Quantity: mean fluorescence intensity
Oligonucleotide: GGTTGGTGTGGTTGG
2'F-ANA at 1 2 3 6 7 8 10 11 12 13 14: 56.7 a.u.
2'F-ANA at 1 2 3 4 5 6 7 11 13: 50 a.u.
2'F-ANA at 2 3 5 6 7 9 10 11 12: 71.1 a.u.
2'F-ANA at 1 2 6 9 10 15: 69.5 a.u.
2'F-ANA at 2 3 6 8 10 11 14 15: 222 a.u.
2'F-ANA at 1 2 4 6 10 11 13: 50.9 a.u.
2'F-ANA at 1 4 7 9 10 11 12 13 14: 46.3 a.u.
2'F-ANA at 1 5 10 12 13 15: 47.8 a.u.
2'F-ANA at 2 5 6 7 12 15: 137 a.u.
2'F-ANA at 1 3 5 6 8 10 11 14: 50.2 a.u.
2'F-ANA at 5 7 10 11: 53.3 a.u.
2'F-ANA at 1 4 7 14 15: 140 a.u.
2'F-ANA at 1 3 4 5 6 7 8 9 12 13 15: 78 a.u.
2'F-ANA at 1 4 5 6 7 9 10 11 12: 71.9 a.u.
2'F-ANA at 1 2 5 7 9 10 11 13 15: 46.8 a.u.

Set 5
Target: Ras GTPase-activating protein-binding protein 1, RRM domain (G3BP1, Homo sapiens, UniProt Q13283)
Sequence of UniProt Q13283 (whole entry, looked up): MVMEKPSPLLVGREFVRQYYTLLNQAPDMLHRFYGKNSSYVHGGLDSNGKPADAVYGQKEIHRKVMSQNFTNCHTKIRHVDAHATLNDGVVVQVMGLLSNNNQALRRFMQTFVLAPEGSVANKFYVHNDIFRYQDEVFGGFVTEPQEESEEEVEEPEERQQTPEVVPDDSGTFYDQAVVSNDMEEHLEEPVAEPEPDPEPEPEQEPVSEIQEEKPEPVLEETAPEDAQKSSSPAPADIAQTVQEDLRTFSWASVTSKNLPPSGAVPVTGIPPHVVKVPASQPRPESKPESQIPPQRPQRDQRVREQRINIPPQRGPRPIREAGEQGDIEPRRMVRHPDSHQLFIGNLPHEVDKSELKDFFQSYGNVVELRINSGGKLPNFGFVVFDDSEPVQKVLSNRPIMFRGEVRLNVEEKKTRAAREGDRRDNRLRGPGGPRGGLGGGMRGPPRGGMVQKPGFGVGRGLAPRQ
Method: RNA Bind-n-Seq
Form: RNA
Matrix: in vitro
Concentration: 1 µM
Setting: whole 134-nt RNA, ends assumed
With: 150 mM KCl
Relative to: input library
Direction: higher = stronger binding
Quantity: log2 enrichment
Shared flanks, not repeated: GGGAGUUCUACAGUCCGACGAUC … UGGAAUUCUCGGGUGUCAAGG
GUCCUGUGCUACACAUCGUAUGUACCGAAUCGGUUUUUGGGUUUUUGGGGUUUUUGGGAAAGUAUUAUGUUACGCCGUUCGGAUCUGCAC: -0.179
AAGUCCUGUGCUACACAUCGUAUGUACCGAAUCGGAAAAAAAGGAGGUUUUUUUGGAAAGUAUUAUGUUACGCCGUUCGGAUCUGCACUU: -0.109
CCUGUGCUACACAUCGUAUGUACCGAAUCGGGAAAAAAAGGGAAAAAGGGUUUUUUUGGGAAAGUAUUAUGUUACGCCGUUCGGAUCUGC: -0.149
ACCAUGCAGGUGGGCAUCUUUGGGAAGUGGGGCAAGGGGGGGAUAGGGAGGGGGGUAACACUUUGGGAACAGGUGGACCCAGGUCGUUUC: 0.252
CUCAAGUCCUGUGCUACACAUCGUAUGUACCGAAUCGGGUUGGUUGGUUGGGGAAAGUAUUAUGUUACGCCGUUCGGAUCUGCACUUCCA: -0.218

Mixed results
PhoQ, residues 284 288 289 292 302 303 SCKMEA  fold induction (PhoP, residues 12 14 15 18 19 VQALL (Escherichia coli, UniProt P23836); Sort-seq, measured: YFP reporter; E. coli; PhoQ-PhoP variant library, with: 10 µM Mg2+; relative to: high Mg2+ state, higher = stronger signaling): 1.85

A few entries again (set 2):
GACGAACTGAGACTGGCGACGTGCTAG: -0.501 z-score
TGTGTTTTAAATAGGGCAAAGTGCTAG: -0.183 z-score
GACGGTTTCCTTCTCCGGACGTGCTAG: 2.61 z-score
TGTTTTTTGGTTTCTGGTTTGTGCTAG: 4.68 z-score
ATGAGTCTCAATATTAGAGTGTGCTAG: 2.02 z-score
